Earlier results as cited in several papers.
Each line is one published result; not all experiments were run side by side. ± gives the spread as reported.
Sequence of UniProt P21728 (whole entry, looked up): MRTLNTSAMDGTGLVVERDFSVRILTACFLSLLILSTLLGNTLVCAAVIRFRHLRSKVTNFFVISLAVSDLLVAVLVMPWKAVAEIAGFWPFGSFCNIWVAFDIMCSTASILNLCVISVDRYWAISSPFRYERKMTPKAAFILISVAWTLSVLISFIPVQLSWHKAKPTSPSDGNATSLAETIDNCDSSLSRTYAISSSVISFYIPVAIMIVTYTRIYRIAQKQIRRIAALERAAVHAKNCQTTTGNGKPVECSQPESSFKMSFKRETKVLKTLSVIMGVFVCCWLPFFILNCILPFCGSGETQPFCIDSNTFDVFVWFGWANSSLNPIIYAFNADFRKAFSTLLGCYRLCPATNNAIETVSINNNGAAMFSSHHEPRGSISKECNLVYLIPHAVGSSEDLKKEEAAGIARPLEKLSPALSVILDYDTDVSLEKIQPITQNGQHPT
Sequence of UniProt P14416 (whole entry, looked up): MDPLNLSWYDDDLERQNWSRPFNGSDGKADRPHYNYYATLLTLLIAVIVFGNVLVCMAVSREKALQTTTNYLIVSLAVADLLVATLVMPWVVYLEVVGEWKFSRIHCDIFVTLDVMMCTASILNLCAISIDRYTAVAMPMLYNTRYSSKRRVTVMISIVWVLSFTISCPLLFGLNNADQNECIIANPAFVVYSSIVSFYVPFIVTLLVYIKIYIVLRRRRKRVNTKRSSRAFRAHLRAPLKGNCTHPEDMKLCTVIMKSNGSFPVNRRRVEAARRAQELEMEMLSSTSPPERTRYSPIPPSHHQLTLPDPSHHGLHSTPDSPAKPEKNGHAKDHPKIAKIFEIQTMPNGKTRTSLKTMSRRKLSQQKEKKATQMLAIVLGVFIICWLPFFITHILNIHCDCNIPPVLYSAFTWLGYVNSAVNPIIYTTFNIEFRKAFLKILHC

SMILES | target | test | test system | setting | endpoint | value
CCCC(C(=O)c1ccc(O)c(O)c1)N1CCCC1 (centres unmarked) | norepinephrine transporter, rat | norepinephrine uptake, inhibitor | brain synaptosomes | – | IC50 | 0.011 ± 0.001 µM
COc1cc2c(cc1C)CC(N)C2 (centres unmarked) | noradrenaline transporter | [3H]noradrenaline uptake | synaptosomes | – | IC50 | 11.6 µM
CN1C(=O)CN=C(c2ccccc2)c2cc(Cl)ccc21 | α2 GABAA receptor | – | – | concentration not given, at analgesia above 50% maximum possible effect | receptor occupancy | ~70%
CCCC(C(=O)c1ccc(O)c(OC)c1)N1CCCC1 (centres unmarked) | serotonin transporter, rat | serotonin uptake, inhibitor | brain synaptosomes | – | IC50 | > 10 µM
C=CCN(CC=C)CCc1c[nH]c2ccccc12 | DRD2 (Homo sapiens, UniProt P14416) | binding | cloned human receptor | together with: [3H]N-methylspiperone | Ki | > 10 µM
COC(=O)[C@H](c1ccc(F)cc1)[C@H]1CCCCN1 (racemic) | serotonin transporter | binding | – | together with: [3H]citalopram | IC50 | > 10 µM
CCC[C@H](C(=O)c1ccc2c(c1)OCO2)N1CCCC1 | norepinephrine transporter, rat | norepinephrine uptake, inhibitor | brain synaptosomes | – | IC50 | 0.726 ± 0.15 µM
NC1Cc2cc3c(cc2C1)OCO3 | dopamine transporter | [3H]dopamine uptake | synaptosomes | – | IC50 | 5.92 µM
C[C@]12CCC(=O)CC1=CC[C@@H]1[C@@H]2CC[C@]2(C)C(=O)CC[C@@H]12 | ketosteroid isomerase Y30F | substrate | – | pH 7.0, 3.3 % methanol | kcat | 17800 ± 100 s⁻¹
C=CCN(CC=C)CCc1c[nH]c2ccc(F)cc12 | DRD1 (Homo sapiens, UniProt P21728) | – | – | – | Ki | > 10 µM
NCCc1ccccc1 | TAAR1, mouse | – | – | – | EC50 | 0.209 µM

Repeated from above:
SMILES | target | test | test system | setting | endpoint | value
C=CCN(CC=C)CCc1c[nH]c2ccc(F)cc12 | DRD1 (Homo sapiens, UniProt P21728) | – | – | – | Ki | > 10 µM
